Published values collected from several papers.
A part holds a random share of what one study measured. Changes are numbered by the printed parent chain.

Study 1 — method: competition protein-binding microarray; molecule type: double-stranded DNA, one strand shown; sample: in vitro; concentration: 2 µM; together with: Cbf1 competitor, 0.05 µM; reading: higher = stronger binding; quantity: fluorescence intensity
Target: Phosphate system positive regulatory protein PHO4, full length, GST-tagged (PHO4, Saccharomyces cerevisiae, UniProt P07270, residues 1-312)
Setting: whole 60-bp probe, lowest competitor level
Target sequence (chain): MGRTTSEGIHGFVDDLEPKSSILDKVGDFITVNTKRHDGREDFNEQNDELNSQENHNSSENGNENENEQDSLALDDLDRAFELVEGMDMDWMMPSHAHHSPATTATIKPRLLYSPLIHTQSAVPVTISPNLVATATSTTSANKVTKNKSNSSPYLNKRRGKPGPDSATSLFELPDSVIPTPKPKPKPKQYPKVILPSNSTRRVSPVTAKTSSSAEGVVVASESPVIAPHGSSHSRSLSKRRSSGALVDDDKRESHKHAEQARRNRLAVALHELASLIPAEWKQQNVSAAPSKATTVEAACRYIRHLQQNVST
TCTTCTTGCGAGGCGCTCGTGGTCGAGCCGTTCGTAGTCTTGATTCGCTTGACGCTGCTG: 9800 a.u.
TGAAGAGTGTTGTCTCATGTGACAGTGAATGCCATTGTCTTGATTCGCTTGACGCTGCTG: 5430 a.u.
TGCGCAACAACTTGAAGGGTGGGTGTATGTCTAGAAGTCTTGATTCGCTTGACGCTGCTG: 4970 a.u.
CGGGGTTAAGTTTTTCACGTGAGATGCTTGCAGCAGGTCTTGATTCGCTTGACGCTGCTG: 10700 a.u.
CTAACGAAGGTTTGTCACCTCACTTACAAGCCAAGTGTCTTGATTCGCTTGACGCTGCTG: 3120 a.u.
CGCTATTTTCGCCGTCACATGTCAATAAAAGCAGATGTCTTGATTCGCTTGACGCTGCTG: 10600 a.u.
CCAGTAGAGTGGTAAAGCGTGCCTACGGCGGTGTTGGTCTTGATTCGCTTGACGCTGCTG: 8820 a.u.
CAATGTTTGTTTCCTCACGTGTGTTGGAAAAGGAAAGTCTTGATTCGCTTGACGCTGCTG: 15700 a.u.
CTAACGAAGGTTTTTCACGTGAGATACAAGCCAAGTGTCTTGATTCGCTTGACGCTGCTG: 10400 a.u.
CGTCCTAGTGATTGGTAGGTGGGTGCCATGAGGAAGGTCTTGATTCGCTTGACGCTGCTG: 7290 a.u.
GTCTTGTCTCATTGGGAGGTGGGTGTCCCCACTTCAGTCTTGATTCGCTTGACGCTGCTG: 4490 a.u.
CTTTCCCGATCTTGTCACTATACTTTAGCACATTTGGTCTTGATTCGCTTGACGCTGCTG: 4420 a.u.
GTCTTGTCTCATTTTCACGTGGCGTTCCCCACTTCAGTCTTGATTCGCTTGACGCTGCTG: 12100 a.u.
CGCTTTCCTATTGCGCGCATGACAAGGATGGAAAAAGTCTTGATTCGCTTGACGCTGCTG: 5810 a.u.
CAAGGGCGCCCCGGCCACGTGGAATAATACTGACTTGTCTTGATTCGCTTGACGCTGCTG: 18300 a.u.
CAACAGCAGCAACATCACACGCAGAATTCACAACCAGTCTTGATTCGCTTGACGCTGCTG: 6680 a.u.
GCATTATACCTAAAGCACGCAGAGAAACCTCTCTTTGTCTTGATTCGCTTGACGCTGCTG: 7580 a.u.
GGTACGGCAACTCAATCCGTGCCAGCTTCGGAAGCCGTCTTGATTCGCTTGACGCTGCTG: 4560 a.u.
AGACTGAAAGTTTTGCATGATCAATTTCTCTCATTGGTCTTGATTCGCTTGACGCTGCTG: 3840 a.u.
CGCTCGCCTCATACCCACGGGAATAAGGCAGCCGACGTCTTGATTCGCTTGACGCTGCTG: 6510 a.u.
CGTCCTAGTGATTGGGTAGTGGGTGCCATGAGGAAGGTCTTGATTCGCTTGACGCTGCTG: 7330 a.u.
ATGGGCAAGCGCATCCATGTGGCGTTTCCTACTTTTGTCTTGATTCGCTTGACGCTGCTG: 9550 a.u.
GTCTTGTCTCATTGCGGTGTGGGTGTCCCCACTTCAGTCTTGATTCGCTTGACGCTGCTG: 5810 a.u.

Study 2 — method: DHFR PCA, deep sequencing; sample: yeast; together with: (+)-ABA 0.39 µM; relative to: wild-type fitted maximum; reading: higher = stronger binding; quantity: relative binding score
Target: ABI1, truncated, D143A, DHFR fusion (Arabidopsis thaliana)
Setting: methotrexate growth selection, single substitutions
Parent: PYL1, truncated, DHFR fusion (Arabidopsis thaliana); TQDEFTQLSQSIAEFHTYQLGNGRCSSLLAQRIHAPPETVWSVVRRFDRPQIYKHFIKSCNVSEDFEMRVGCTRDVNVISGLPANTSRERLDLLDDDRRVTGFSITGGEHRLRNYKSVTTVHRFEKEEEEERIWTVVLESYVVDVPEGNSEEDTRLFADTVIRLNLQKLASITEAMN
S42Y: -0.0906%
I57L: 7.33%
E4M: 37.8%
F124T: 2.2%
T160C: 4.12%
T17F: -13.4%
V121Y: -12.3%
F157Y: 37.1%
L20A: 54.3%
D48L: -5.89%
K168G: 2.56%
A175C: 26.4%
K116H: 13.8%

Study 3 — target: CCNE2, cyclin fold, Cln2 fusion (human); method: yeast growth competition, sequencing; sample: yeast; setting: weak parent motif; relative to: not given; reading: higher = stronger binding; quantity: normalised enrichment score
Parent: ORC1 docking peptide (human); PRARKRLELGNLG
A3G: -0.861
K5I: 0.821
P1L: 0.156
E8A: 0.672
G13H: 0.815
P1R: 0.902
K5A L7A: 0.254
N11H: 0.395
R2T: 0.225
K5G: 0.866
K5A: 0.403
G10Y: 1.91
N11I: -0.0748
R6K: -0.227
G13T: 0.442
P1I: 0.703
N11S: 0.26
R6V: 1.1
R6D: 0.0618
R4Y: 1.18
P1F: -0.522
R4T: 0.405
R6M: 0.653
N11C: 1.11
E8Q: 1.54

Study 4 — method: universal PBM; molecule type: double-stranded DNA, one strand shown; sample: in vitro; concentration: not given; reading: higher = stronger binding; quantity: E-score
Target: Sal-like protein 4, full length isoform B (SALL4, Homo sapiens, UniProt Q9UJQ4-2, residues 1-616)
Setting: 8-mer, flanks averaged, mean of replicates
GAGCCTAA: -0.0435
AGATTCAT: 0.199
ACCCGCAC: -0.213
ATTCCGAC: -0.0882
ATGCTTGC: -0.0289
CACTCATC: 0.0538
TACTTATA: 0.305
ACCCGTAA: -0.0193
GTGATTTA: 0.209
ATAAAGTA: 0.345
GCACTAGC: -0.127
GCCTGGCC: -0.249
CTTCAATC: 0.00934
GCTATCTA: -0.017
AATCATGC: -0.0741
GGCTCCTA: -0.21
CGTTTATA: 0.307
ATAAGGCC: -0.0481
GCTAGTTA: 0.0858
AAACTCTA: 0.131
GTGAGTTA: 0.0408
CGTCTTGA: -0.035
ATCATCTC: 0.151
ACCCATAC: 0.14
AACTCTGG: 0.0218

Study 5 — method: protein binding microarray; molecule type: double-stranded DNA, one strand shown; sample: in vitro; concentration: not given; relative to: not given; reading: higher = stronger binding; quantity: E-score
Target: Histone acetyltransferase KAT6A, winged helix 1, GST fusion (KAT6A, Homo sapiens, UniProt Q92794, residues 1-85)
Setting: 8-mer, flanks averaged, mean of 2 arrays, mostly near background
Residues (chain): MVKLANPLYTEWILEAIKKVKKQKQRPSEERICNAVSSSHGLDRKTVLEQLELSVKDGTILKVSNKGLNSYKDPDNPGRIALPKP
CTGGGGTA: -0.165
CGGAGGTC: 0.0455
ATCTTAAT: -0.171
GCGCGAGC: 0.386
ACTAATCG: 0.0754
CCTCCTCC: -0.245
CAAGCGTC: 0.227
ACTGTCTA: -0.141
GTAACAAA: 0.0158
CAACGGCA: 0.271
ATTGGGGA: -0.291
AGTTGATG: -0.182
AAGGGTGA: -0.125
GAACAGCC: -0.0139
ACTACTAT: -0.128
CATTTCAA: -0.178
AACCGATT: -0.00369
ATGATCGG: 0.0499
CATTTGGG: -0.0364

Single results of other studies
PhoQ, residues 284 288 289 292 302 303 SSCCRF
fold induction (PhoP, residues 12 14 15 18 19 QWHVF (Escherichia coli, UniProt P23836); Sort-seq, item: YFP reporter; E. coli; PhoQ-PhoP variant library, together with: 10 µM Mg2+; relative to: high Mg2+ state, higher = stronger signaling): 9.44

For quick reference, copied from above (study 4):
AACTCTGG: 0.0218
GAGCCTAA: -0.0435
CGTTTATA: 0.307
GTGATTTA: 0.209
ATGCTTGC: -0.0289
CACTCATC: 0.0538
GCCTGGCC: -0.249
ATCATCTC: 0.151
AGATTCAT: 0.199
